Measured values gathered from unrelated publications.
Compare with care: the assays were run in different laboratories. “And” joins repeats or separate records; there may be more than shown. ± marks the error that the study gave.
KAI2: KAI2 (Arabidopsis thaliana, UniProt Q9SZU7)
Sequence of UniProt Q9SZU7 (whole entry, looked up): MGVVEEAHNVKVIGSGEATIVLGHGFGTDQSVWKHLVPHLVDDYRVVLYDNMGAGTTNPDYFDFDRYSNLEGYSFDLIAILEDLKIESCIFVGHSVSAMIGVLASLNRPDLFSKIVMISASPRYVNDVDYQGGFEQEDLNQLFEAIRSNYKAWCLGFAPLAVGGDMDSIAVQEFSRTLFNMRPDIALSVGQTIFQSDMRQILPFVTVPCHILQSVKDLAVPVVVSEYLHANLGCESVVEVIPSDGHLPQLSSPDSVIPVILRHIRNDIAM
CNR2: Cannabinoid receptor 2 (CNR2, Homo sapiens, UniProt P34972)
Sequence of UniProt P34972 (whole entry, looked up): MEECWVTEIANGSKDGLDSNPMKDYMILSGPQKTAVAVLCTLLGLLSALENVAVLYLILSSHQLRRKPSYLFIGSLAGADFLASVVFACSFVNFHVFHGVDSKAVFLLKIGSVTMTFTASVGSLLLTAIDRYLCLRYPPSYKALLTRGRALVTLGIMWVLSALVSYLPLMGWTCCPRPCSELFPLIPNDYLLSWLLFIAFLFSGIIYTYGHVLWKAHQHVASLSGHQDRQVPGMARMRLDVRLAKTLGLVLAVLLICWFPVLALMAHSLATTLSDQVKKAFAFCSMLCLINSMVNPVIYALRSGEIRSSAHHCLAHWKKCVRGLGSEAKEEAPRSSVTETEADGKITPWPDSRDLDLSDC
Genome polyprotein NS2B-NS3 protease: Genome polyprotein, NS2B-NS3 protease (dengue virus type 2, UniProt P29990)
Sequence of UniProt P09769 (whole entry, looked up): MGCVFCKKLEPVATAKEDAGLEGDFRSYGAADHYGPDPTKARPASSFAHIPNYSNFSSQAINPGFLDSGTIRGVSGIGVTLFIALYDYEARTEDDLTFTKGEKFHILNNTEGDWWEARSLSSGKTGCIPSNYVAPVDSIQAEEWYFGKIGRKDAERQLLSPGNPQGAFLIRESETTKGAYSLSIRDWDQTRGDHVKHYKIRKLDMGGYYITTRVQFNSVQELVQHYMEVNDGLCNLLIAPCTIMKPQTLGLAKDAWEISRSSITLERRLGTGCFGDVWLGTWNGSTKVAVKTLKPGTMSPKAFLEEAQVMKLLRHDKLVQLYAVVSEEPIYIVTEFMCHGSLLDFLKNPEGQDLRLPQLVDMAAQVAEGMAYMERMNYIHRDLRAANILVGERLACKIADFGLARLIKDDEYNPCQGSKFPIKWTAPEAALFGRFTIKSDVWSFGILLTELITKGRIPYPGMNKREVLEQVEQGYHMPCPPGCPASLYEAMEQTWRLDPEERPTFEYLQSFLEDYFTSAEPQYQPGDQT
Sequence of UniProt P46089 (whole entry, unmodified, looked up): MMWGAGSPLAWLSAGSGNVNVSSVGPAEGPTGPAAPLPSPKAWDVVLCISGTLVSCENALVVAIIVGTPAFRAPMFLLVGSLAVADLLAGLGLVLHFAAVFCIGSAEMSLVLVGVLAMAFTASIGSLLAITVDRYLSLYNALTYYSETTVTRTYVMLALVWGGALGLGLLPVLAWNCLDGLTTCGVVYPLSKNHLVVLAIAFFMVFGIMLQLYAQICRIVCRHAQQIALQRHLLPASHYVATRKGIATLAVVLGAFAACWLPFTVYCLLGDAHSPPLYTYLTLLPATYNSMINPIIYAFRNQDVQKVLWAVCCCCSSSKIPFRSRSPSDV

SMILES	target	test	system	setting	quantity	value
O=C(N1CCc2ccccc21)n1ccnn1	KAI2	binding, ITC	–	–	Kd	200 µM
CC(C)Oc1cc(Cl)ccc1CNc1cc(-c2ccccc2)nc2ncnn12	GPR3 (Homo sapiens, UniProt P46089, Q215A)	cAMP level, cAMP GloSensor	–	–	EC50	0.437 µM
C=CC(=O)N1C[C@H](C)N(c2nc(OC[C@@]34CCCN3C[C@H](F)C4)nc3c(F)c(-c4ccc(F)c5sc(N)c(C#N)c45)c(C(F)(F)F)cc23)C[C@H]1C	GTPase KRas, GppNHp-bound (KRAS, Homo sapiens, UniProt P01116)	SPR kinetic fit	–	GppNHp-bound wild type	Kd	12.4 ± 1 µM
CC(C)(C)n1cc(CN(Cc2cn(CCOCCOCCOCCOCCOCCO)nn2)Cc2cn(C(C)(C)C)nn2)nn1	Cu(I)	binding, bicinchoninic acid competition	–	500 µM, added: bicinchoninic acid 40 µM	Kd	0.00032 µM
O=C1c2ccc3c4ccc5c6c(ccc(c7ccc(c2c37)C(=O)N1CCN1CCCCC1)c64)C(=O)N(CCN1CCCCC1)C5=O	hTERT promoter G-quadruplex DNA	binding, thiazole orange displacement	–	pH 6	DC50	0.42 ± 0.28 µM
CCOC(=O)C(CC)(CCCSCCOCCOCCN)NC(=O)c1ccc(C2CC2)c(Cc2ccc(F)cc2)n1 (racemic)	CNR2	cAMP, agonist	–	–	EC50	0.028 µM
O=C(N1CCc2cccc(F)c21)n1ccnn1	KAI2	binding, ITC	–	–	Kd	164 µM
CCOC(=O)C(CC)(CCCSCCOCCOCCOCCNc1ccc([N+](=O)[O-])c2nonc12)NC(=O)c1ccc(C2CC2)c(Cc2ccc(F)cc2)n1 (stereo not drawn)	CNR2	ligand displacement, radioligand	–	cell membranes	Ki	0.027 µM
O=C(c1cc(-c2ccccc2)n(-c2ccccc2)n1)N(Cc1ccccn1)CC1CCCO1 (stereo not drawn)	Genome polyprotein NS2B-NS3 protease	reporter gene	HeLa	–	EC50	16 µM
O=C(O)C(Cc1c[nH]cn1)N1C(=O)c2ccc3c4ccc5c6c(ccc(c7ccc(c2c37)C1=O)c64)C(=O)N(CCN1CCCCC1)C5=O (stereo not drawn)	hTERT promoter G-quadruplex DNA	binding, thiazole orange displacement	–	pH 7	DC50	0.36 ± 0.14 µM
O=C(c1ccco1)N1CCc2ccccc21	KAI2	isothermal titration calorimetry	–	–	Kd	224 µM and 246 µM
NC(=O)c1cccc(NC(=O)c2cc(-c3ccc4c(c3)OCCO4)n(-c3ccccc3)n2)c1	Genome polyprotein NS2B-NS3 protease	reporter gene	HeLa	–	EC50	12 µM
Cc1cccc2c1N(C(=O)n1ccnn1)CC2	KAI2	ITC	–	wild-type protein	Kd	28.2 µM and 26.9 µM and 27.9 µM
CC(C)(C)n1cc(CN(Cc2cn(CC(=O)O)nn2)Cc2cn(C(C)(C)C)nn2)nn1	Cu(I)	binding, bicinchoninic acid competition	–	500 µM, added: bicinchoninic acid 40 µM	Kd	0.00011 µM
NCc1ccc(NC(=O)c2cc(-c3ccccc3)n(-c3ccccc3)n2)cc1	Genome polyprotein NS2B-NS3 protease	reporter gene	HeLa	–	EC50	5.8 µM
O=C(O)C(Cc1c[nH]cn1)N1C(=O)c2ccc3c4ccc5c6c(ccc(c7ccc(c2c37)C1=O)c64)C(=O)N(C(Cc1c[nH]cn1)C(=O)O)C5=O (stereo not drawn)	hTERT promoter G-quadruplex DNA	binding, thiazole orange displacement	–	pH 7	DC50	> 2.5 µM
C=CC(=O)N1CC2(CCN(c3nc(OC4CCN(CCCOC)CC4)nc4c(OCC(F)(F)F)c(-c5c(C)ccc6[nH]ncc56)c(C5CC5)cc34)CC2)C1	GTPase KRas, GDP-bound (KRAS, Homo sapiens, UniProt P01116, Q61R)	binding, surface plasmon resonance	–	–	Kd	0.618 ± 0.056 µM
NC(=O)c1cccc(NC(=O)c2cc(-c3ccccc3)nn2-c2ccccc2)c1	Genome polyprotein NS2B-NS3 protease	reporter gene	HeLa	–	EC50	14 µM
O=C(N1CCc2ccccc21)n1ccnc1	KAI2	ITC	–	mean of replicates	Kd	106 µM
NC(=O)c1cccc(NC(=O)c2cc(-c3ccc(Br)cc3)n(-c3ccccc3)n2)c1	Genome polyprotein NS2B-NS3 protease	reporter gene	HeLa	–	EC50	13 µM
Cc1nn(-c2cccc(N)c2)c(=O)c2cnc(Nc3ccc(N4CCNCC4)cc3)nc12	FGR (Homo sapiens, UniProt P09769)	enzyme activity, inhibitor	–	–	IC50	0.597 µM
CN1CCN(c2ccc(NC(=O)c3cc(-c4ccccc4)n(-c4ccccc4)n3)cc2)CC1	Genome polyprotein NS2B-NS3 protease	reporter gene	HeLa	–	EC50	> 38 µM
CCOC(=O)[C@](CC)(CCCSCCOCCOCCNC(=O)OC(C)(C)C)NC(=O)c1ccc(C2CC2)c(Cc2ccc(F)cc2)n1	CNR2	ligand displacement, radioligand	–	cell membranes	Ki	0.028 µM
NC(=O)c1cc(-c2ccc3c(c2)OCCO3)n(-c2ccccc2)n1	Genome polyprotein NS2B-NS3 protease	reporter gene	HeLa	–	EC50	18 µM
CCOC(=O)C(CC)(CCCOC)NC(=O)c1ccc(C2CC2)c(Cc2ccc(F)cc2)n1 (stereo not drawn)	CNR2	ligand displacement, radioligand	–	cell membranes	Ki	0.0015 µM
O=C(Nc1cccc(N2CCOCC2)c1)c1cc(-c2ccccc2)n(-c2ccccc2)n1	Genome polyprotein NS2B-NS3 protease	reporter gene	HeLa	–	EC50	13 µM
O=C(N1CCc2ccccc21)n1nccn1	KAI2	binding, ITC	–	–	Kd	316 µM

Some of these lines once more:
SMILES	target	test	system	setting	quantity	value
Cc1cccc2c1N(C(=O)n1ccnn1)CC2	KAI2	ITC	–	wild-type protein	Kd	28.2 µM and 26.9 µM and 27.9 µM
O=C(N1CCc2ccccc21)n1ccnc1	KAI2	ITC	–	mean of replicates	Kd	106 µM
O=C(O)C(Cc1c[nH]cn1)N1C(=O)c2ccc3c4ccc5c6c(ccc(c7ccc(c2c37)C1=O)c64)C(=O)N(C(Cc1c[nH]cn1)C(=O)O)C5=O (stereo not drawn)	hTERT promoter G-quadruplex DNA	binding, thiazole orange displacement	–	pH 7	DC50	> 2.5 µM
NC(=O)c1cc(-c2ccc3c(c2)OCCO3)n(-c2ccccc2)n1	Genome polyprotein NS2B-NS3 protease	reporter gene	HeLa	–	EC50	18 µM
